Results collected from several papers.
Compare with care: the assays were run in different laboratories. Values joined by “and” are separate records of one study, mostly repeats; a detail may differ. ± marks the error that the study gave.
Sequence of UniProt A2AJ88 (whole entry, looked up): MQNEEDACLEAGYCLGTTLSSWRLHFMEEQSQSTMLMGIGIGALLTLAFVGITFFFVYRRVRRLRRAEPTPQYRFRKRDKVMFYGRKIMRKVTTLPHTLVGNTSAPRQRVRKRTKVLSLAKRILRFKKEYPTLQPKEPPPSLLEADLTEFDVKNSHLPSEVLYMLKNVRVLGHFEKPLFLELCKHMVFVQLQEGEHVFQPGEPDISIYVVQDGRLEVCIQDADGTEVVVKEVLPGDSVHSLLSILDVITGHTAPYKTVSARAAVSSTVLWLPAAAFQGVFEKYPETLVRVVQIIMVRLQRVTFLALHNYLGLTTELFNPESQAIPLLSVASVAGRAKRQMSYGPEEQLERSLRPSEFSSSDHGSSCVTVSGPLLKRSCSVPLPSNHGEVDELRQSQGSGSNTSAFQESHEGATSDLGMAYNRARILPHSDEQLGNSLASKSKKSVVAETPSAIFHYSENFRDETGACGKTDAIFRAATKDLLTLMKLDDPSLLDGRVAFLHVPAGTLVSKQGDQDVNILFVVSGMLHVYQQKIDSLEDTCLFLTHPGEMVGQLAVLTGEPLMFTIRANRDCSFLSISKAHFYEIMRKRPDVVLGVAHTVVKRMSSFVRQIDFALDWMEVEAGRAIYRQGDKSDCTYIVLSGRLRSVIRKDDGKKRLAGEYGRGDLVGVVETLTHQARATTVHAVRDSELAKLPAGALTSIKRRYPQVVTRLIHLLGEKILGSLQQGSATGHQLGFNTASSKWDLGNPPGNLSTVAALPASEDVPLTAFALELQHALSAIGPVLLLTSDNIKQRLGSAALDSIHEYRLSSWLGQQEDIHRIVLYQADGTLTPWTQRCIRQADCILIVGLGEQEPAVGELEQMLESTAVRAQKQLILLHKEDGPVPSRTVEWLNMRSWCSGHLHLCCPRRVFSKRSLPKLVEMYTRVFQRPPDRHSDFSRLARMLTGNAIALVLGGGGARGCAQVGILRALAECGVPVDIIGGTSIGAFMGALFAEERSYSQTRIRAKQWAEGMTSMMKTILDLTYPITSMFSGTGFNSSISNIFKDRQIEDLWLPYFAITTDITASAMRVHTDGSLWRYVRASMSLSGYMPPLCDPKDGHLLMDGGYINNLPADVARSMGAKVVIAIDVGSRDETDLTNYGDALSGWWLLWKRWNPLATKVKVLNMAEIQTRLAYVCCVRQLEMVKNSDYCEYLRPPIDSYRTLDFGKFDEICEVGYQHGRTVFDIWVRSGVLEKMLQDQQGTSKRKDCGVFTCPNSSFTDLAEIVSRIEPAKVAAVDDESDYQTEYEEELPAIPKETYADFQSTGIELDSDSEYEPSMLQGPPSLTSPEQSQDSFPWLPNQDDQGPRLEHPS
Sequence of UniProt P38606 (whole entry, looked up): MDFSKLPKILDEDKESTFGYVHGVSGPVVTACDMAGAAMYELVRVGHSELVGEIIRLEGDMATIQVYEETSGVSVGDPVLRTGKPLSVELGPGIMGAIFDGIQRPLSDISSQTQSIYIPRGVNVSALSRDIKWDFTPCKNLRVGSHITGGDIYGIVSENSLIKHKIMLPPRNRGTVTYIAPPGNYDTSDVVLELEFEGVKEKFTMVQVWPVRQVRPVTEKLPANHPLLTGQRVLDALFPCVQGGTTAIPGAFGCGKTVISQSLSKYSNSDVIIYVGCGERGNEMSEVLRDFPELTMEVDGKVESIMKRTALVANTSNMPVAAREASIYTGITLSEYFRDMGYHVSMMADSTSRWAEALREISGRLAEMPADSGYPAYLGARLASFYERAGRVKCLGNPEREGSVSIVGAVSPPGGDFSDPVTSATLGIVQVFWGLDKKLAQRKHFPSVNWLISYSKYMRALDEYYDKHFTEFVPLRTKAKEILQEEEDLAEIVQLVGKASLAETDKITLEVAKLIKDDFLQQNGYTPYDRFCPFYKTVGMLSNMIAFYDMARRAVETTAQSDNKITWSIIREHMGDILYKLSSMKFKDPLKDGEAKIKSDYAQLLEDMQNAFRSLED
Sequence of UniProt P41968 (whole entry, looked up): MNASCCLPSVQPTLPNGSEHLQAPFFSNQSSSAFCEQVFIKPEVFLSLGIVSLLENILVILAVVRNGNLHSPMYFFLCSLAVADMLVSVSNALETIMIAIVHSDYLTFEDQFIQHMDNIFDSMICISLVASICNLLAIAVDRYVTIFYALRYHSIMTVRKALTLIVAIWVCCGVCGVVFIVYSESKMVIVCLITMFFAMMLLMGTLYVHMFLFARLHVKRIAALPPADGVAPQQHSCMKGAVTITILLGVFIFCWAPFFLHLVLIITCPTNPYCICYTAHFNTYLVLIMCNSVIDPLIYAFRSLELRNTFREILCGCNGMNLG
Sequence of UniProt Q9Y2J8 (whole entry, looked up): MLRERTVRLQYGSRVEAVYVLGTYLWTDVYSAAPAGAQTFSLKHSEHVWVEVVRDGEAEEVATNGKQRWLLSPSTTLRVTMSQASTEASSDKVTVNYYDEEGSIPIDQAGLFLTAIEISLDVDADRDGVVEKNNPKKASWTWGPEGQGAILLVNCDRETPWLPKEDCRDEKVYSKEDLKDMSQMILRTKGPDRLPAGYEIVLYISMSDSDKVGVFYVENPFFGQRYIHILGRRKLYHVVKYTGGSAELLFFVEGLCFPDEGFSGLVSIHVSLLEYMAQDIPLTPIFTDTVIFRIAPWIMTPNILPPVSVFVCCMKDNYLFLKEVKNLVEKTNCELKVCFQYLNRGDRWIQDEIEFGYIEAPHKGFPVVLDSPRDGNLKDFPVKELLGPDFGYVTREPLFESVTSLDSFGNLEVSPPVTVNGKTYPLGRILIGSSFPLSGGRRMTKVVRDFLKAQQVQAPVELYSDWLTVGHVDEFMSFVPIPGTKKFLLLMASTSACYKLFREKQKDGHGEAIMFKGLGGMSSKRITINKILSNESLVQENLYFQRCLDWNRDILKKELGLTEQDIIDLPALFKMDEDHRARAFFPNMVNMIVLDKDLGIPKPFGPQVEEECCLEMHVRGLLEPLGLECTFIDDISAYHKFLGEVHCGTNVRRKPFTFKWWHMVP
Sequence of UniProt Q09013 (whole entry, looked up): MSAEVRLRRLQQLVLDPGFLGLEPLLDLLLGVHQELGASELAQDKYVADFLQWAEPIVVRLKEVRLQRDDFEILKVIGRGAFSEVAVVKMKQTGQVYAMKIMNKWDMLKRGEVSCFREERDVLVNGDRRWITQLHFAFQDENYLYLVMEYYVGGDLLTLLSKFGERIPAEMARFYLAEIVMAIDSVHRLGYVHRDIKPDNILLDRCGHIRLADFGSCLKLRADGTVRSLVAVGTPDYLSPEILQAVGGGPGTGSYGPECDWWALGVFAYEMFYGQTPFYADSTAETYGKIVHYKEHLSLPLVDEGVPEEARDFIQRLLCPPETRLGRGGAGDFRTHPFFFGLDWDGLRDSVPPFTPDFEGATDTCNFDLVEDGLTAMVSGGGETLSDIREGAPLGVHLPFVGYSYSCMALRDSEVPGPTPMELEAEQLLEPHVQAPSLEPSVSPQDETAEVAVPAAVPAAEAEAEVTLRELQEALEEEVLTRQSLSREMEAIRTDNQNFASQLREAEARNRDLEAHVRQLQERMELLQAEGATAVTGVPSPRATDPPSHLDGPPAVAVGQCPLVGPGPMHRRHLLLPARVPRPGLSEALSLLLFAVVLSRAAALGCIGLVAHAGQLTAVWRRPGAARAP
Sequence of UniProt Q96BR1 (whole entry, looked up): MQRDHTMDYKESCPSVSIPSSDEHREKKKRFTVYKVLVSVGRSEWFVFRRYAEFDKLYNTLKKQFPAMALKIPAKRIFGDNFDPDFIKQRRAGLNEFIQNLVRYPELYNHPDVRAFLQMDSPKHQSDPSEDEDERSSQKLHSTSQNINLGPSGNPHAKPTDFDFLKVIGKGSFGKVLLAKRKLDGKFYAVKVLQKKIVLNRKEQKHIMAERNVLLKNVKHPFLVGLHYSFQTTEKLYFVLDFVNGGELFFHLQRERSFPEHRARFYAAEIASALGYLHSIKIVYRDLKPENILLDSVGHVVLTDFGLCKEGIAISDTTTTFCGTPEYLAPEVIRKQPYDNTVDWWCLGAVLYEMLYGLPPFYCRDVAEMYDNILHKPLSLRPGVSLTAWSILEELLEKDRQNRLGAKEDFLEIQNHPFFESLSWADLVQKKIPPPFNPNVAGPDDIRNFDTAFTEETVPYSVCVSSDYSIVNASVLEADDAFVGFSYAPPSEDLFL

CC(C)[C@H]1NC(=O)C[C@H]2/C=C/CCSSC[C@@H](NC1=O)C(=O)N[C@H](Cc1cccc3ccccc13)C(=O)NCC(=O)O2  inhibition (PAS domain-containing serine/threonine-protein kinase (PASK, Homo sapiens, UniProt Q96RG2); enzyme activity, inhibitor; 10 µM): 11.2%
CS(C)(=O)=Nc1ccc(-c2ccc(-c3nc4cc(O[C@@H]5CO[C@H]6[C@@H]5OC[C@H]6O)[nH]c4cc3F)cc2)cc1  inhibition (Melanocortin receptor 3 (MC3R, Homo sapiens, UniProt P41968); calcium signal, antagonist; 10 µM): 17%
O=C1NC(=O)c2c1c1cc(F)c[n+]3c1c1c2c2cc(O)ccc2[n]1[Ru-4]312([N]=C=S)[S+]3CC[S+]1CC[S+]2CC3 (stereo not drawn)  remaining activity (Myotonin-protein kinase (DMPK, Homo sapiens, UniProt Q09013); enzyme activity; 100 nM, human enzyme, together with: 10 µM ATP; baseline: untreated): 112%
COc1ccccc1-c1n[nH]c2nc(N[C@H]3CC[C@H](NS(=O)(=O)CC(C)C)CC3)ncc12  remaining binding (cdc2-related kinase 12 (Leishmania donovani, UniProt A0A3S7WQK2); kinobead competition pull-down; Leishmania donovani, cell extract; 0.016 µM; baseline: vehicle): 8%
CN(C)[C@H]1C[C@@]23CC[C@@]4(O2)C(=CC[C@]2(C)[C@@H](c5ccc6ccncc6c5)CC[C@H]24)C=C3[C@@H](O)[C@@H]1O  inhibition (Serine/threonine-protein kinase Sgk3 (SGK3, Homo sapiens, UniProt Q96BR1); ATP probe labelling, inhibitor, KiNativ profiling; 0.1 µM): -1.6%
COc1ccccc1/N=N/c1cccc([B-](F)(F)F)c1.[K+]  switching factor (Chymotrypsinogen A (Bos taurus, UniProt P00766); enzyme activity, inhibitor; together with: Suc-AAPF-AMC; baseline: Ki cis over Ki trans): 2.3 ± 0.1
O=C(N1CCCCC1)n1ccnn1  SILAC ratio (Patatin-like phospholipase domain-containing protein 7 (Pnpla7, Mus musculus, UniProt A2AJ88); probe labelling, inhibitor, competitive ABPP-SILAC, measured: Pnpla7; mouse T cells; concentration not given, 4 h, in situ, single peptide; baseline: treated over DMSO, lower = more inhibition): 0.8 and 0.68 and 0.9 and 0.82 and 1.03 and 0.97 and 0.87 and 0.78
C#CCCCCOc1ccc2c(c1)CCCN2C(=O)CCl  reactivity ratio (V-type proton ATPase catalytic subunit A (ATP6V1A, Homo sapiens, UniProt P38606); mass spectrometry profiling; Ramos cell lysate; 100 µM over 10 µM, UniProt P38606; baseline: high over low concentration): 0.632
C[C@H](NCc1ccc(-c2ccc(C(F)(F)F)cc2)cc1)C(N)=O  inhibition (androgen receptor, human; binding, radioligand binding; biochemical; 1 µM, together with: [3H]methyltrienolone 0.50 nM): -3%
N[C@H](C(=O)N1CCCC1)C1CCN(c2nccc3c(-c4ncc(Cl)cc4Cl)cccc23)CC1  kcat (Protein-arginine deiminase type-2 (PADI2, Homo sapiens, UniProt Q9Y2J8); enzyme activity; 0.03932 µM, low-affinity site, together with: Ca2+ 0.25 mM): 0.607 s⁻¹
CN(C)CCCSC(=S)N1CCN(C(=O)/C=C/c2coc3ccccc3c2=O)CC1  MST response (Nucleoprotein (N, Tomato spotted wilt virus, UniProt P25999, R94A); binding, microscale thermophoresis; 250 µM; dose series): 846 a.u.
O=C(c1cccc(-n2cccc2)c1)N1CCCN(S(=O)(=O)c2ccc(F)cc2)CC1  Hill slope (Genome polyprotein, 3C protease (rhinovirus B14, UniProt P03303); protease activity, SAMDI-MS): 1.46

For quick reference, copied from above:
O=C(N1CCCCC1)n1ccnn1  SILAC ratio (Patatin-like phospholipase domain-containing protein 7 (Pnpla7, Mus musculus, UniProt A2AJ88); probe labelling, inhibitor, competitive ABPP-SILAC, measured: Pnpla7; mouse T cells; concentration not given, 4 h, in situ, single peptide; baseline: treated over DMSO, lower = more inhibition): 0.8 and 0.68 and 0.9 and 0.82 and 1.03 and 0.97 and 0.87 and 0.78
COc1ccccc1/N=N/c1cccc([B-](F)(F)F)c1.[K+]  switching factor (Chymotrypsinogen A (Bos taurus, UniProt P00766); enzyme activity, inhibitor; together with: Suc-AAPF-AMC; baseline: Ki cis over Ki trans): 2.3 ± 0.1
